Measured values collected from several papers.
Each line is one published result; not all experiments were run side by side. Values joined by “and” are separate records of one study, mostly repeats; a detail may differ. ± gives the spread as reported.
Gria2/Glutamate receptor 3: Gria2/Glutamate receptor 3 (Rattus norvegicus, UniProt P19491+P19492)
SLC6A9: Sodium- and chloride-dependent glycine transporter 1 (SLC6A9, Homo sapiens, UniProt P48067)
MAPK9: Mitogen-activated protein kinase 9 (MAPK9, Homo sapiens, UniProt P45984)
USP14: Ubiquitin carboxyl-terminal hydrolase 14 (USP14, Homo sapiens, UniProt P54578)
T1: DNA hairpin, hairpin; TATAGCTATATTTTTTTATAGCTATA

COC(=O)Cc1cc2c(cc1C(=O)c1cccc(I)c1)OCO2  current amplitude after recovery (Gria2/Glutamate receptor 3; glutamate-evoked current, whole-cell patch clamp; HEK-293T; concentration not given, glutamate alone after washout, added: glutamate): 490 ± 31 pA
CCCCCC(O)/C=C/C=O (stereo not drawn)  isoTOP-ABPP competition ratio (Histone acetyltransferase type B catalytic subunit (Homo sapiens, UniProt O14929); competitive isoTOP-ABPP, item: HAT1 cysteine peptide; Ramos soluble proteome; 100 µM, added: iodoacetamide probe; baseline: DMSO over compound-treated, higher = stronger cysteine blockade): 1.5
C[Si](C)(C)C[C@@H](CN)CC(=O)O  inhibition (GABAA receptor, rat; binding, radioligand binding; 75 µM, added: [3H]muscimol): -14%
CC(C)C[C@@H]1NC(=O)CN(C)C(=O)[C@H](Cc2c[nH]c3ccccc23)NC(=O)[C@H](CCC(=O)O)NC(=O)[C@H](Cc2ccccc2)N(C)C(=O)[C@H](Cc2ccccc2)NC(=O)CSC[C@@H](C(N)=O)NC(=O)[C@H](CCCCN)NC(=O)[C@H](C(C)C)NC(=O)[C@H](Cc2ccc(O)cc2)NC(=O)[C@H](Cc2ccc(O)cc2)NC(=O)[C@H](C(C)C)NC(=O)[C@H](Cc2ccccc2)N(C)C(=O)[C@H](CCCNC(=N)N)NC1=O  ΔTm (AT-rich interactive domain-containing protein 1B (ARID1B, Homo sapiens, UniProt Q8NFD5, C2157Y); differential scanning fluorimetry; 5 µM, C2074Y mutant): 2 ± 1 °C
CC[C@H](C)[C@@H]1NC(=O)[C@H](Cc2ccccc2)NC(=O)[C@H](CCC(=O)O)NC(=O)[C@H](CCCNC(=N)N)NC(=O)CNC(=O)[C@@H](NC(=O)[C@H](CC(C)C)NC(=O)[C@H](CCCNC(=N)N)NC(=O)[C@@H](NC(=O)CNC(=O)[C@H](Cc2ccc(O)cc2)NC(=O)[C@@H]2CCCN2C(=O)[C@H](C)NC(=O)[C@H](C)NC(=O)[C@@H](N)CCCNC(=N)N)C(C)C)CSSC[C@@H]2NC(=O)[C@@H](NC(=O)[C@H](CO)NC(=O)[C@H](CO)NC(=O)[C@H](CO)NC(=O)[C@H](CC(C)C)NC(=O)CNC(=O)[C@H](C)NC(=O)[C@H](CC(C)C)NC(=O)[C@@H](NC(=O)[C@@H](N)CC(=O)O)C(C)C)CSSC[C@H](NC(=O)CNC(=O)[C@H](Cc3c[nH]c4ccccc34)NC(=O)[C@H](CCCCN)NC2=O)C(=O)N[C@@H](CO)C(=O)N[C@@H](CCCCN)C(=O)N[C@@H](CO)C(=O)N[C@@H](CCC(=O)O)C(=O)N[C@@H]([C@@H](C)CC)C(=O)N[C@@H](CO)C(=O)N[C@@H](CO)C(=O)N[C@@H](CC(C)C)C(=O)N[C@H](C(=O)O)CSSC[C@@H](C(=O)NCC(=O)NCC(=O)N[C@@H](CO)C(=O)N[C@@H](CCCNC(=N)N)C(=O)N[C@@H](Cc2c[nH]c3ccccc23)C(=O)O)NC(=O)[C@H]([C@@H](C)O)NC(=O)[C@H](Cc2ccccc2)NC(=O)[C@H]([C@@H](C)CC)NC(=O)[C@H](C(C)C)NC(=O)[C@H](C)NC(=O)[C@H](CCCNC(=N)N)NC1=O  ΔpEC50 (Relaxin-3 receptor 2 (RXFP4, Homo sapiens, UniProt Q8TDU9, S101A); S101A mutant, unit not given; baseline: wild type): -1.19 and -1.15
CSCC[C@H](NC(=O)[C@H](CCC(N)=O)NC(=O)[C@H](CCCCN)NC(=O)[C@H](CCCNC(=N)N)NC(=O)[C@H](Cc1ccc(O)cc1)NC(=O)[C@H](CCCNC(=N)N)NC(=O)[C@H](CO)NC(=O)[C@H](Cc1ccc(O)cc1)NC(=O)[C@H](CO)NC(=O)[C@H](CC(=O)O)NC(=O)[C@@H](NC(=O)[C@@H](N)Cc1ccccc1)[C@@H](C)O)C(=O)N[C@@H](C)C(=O)N[C@H](C(=O)N[C@@H](CCCCN)C(=O)N[C@@H](CCCCn1cc(C[C@H](NC(=O)CNC(=O)[C@H](CO)NC(=O)[C@H](CCCNC(=N)N)NC(=O)[C@H](CO)NC(=O)[C@H](CC(C)C)NC(=O)[C@H](CC(C)C)NC(=O)CNC(=O)[C@H](C)NC(=O)[C@H](CC(C)C)NC(=O)[C@H](CCCNC(=N)N)NC(=O)[C@H](Cc2c[nH]cn2)NC(=O)[C@@H](NC(=O)[C@@H](N)C(C)C)[C@@H](C)O)C(=O)N[C@H](C(=O)N[C@H](C(=O)N[C@@H](CCCCN)C(=O)N[C@@H](CC(N)=O)C(=O)N[C@@H](CC(N)=O)C(=O)N[C@@H](Cc2ccccc2)C(=O)N[C@H](C(=O)N2CCC[C@H]2C(=O)N[C@H](C(=O)N[C@@H](CC(N)=O)C(=O)N[C@H](C(=O)NCC(=O)N[C@@H](CO)C(=O)N[C@@H](CCCCN)C(=O)N[C@@H](C)C(=O)N[C@@H](Cc2ccccc2)C(N)=O)C(C)C)[C@@H](C)O)C(C)C)C(C)C)C(C)C)nn1)C(=O)N[C@@H](Cc1ccc(O)cc1)C(=O)N[C@@H](CC(C)C)C(=O)N[C@@H](C)C(=O)N[C@@H](C)C(=O)N[C@H](C(=O)N[C@@H](CC(C)C)C(=O)NCC(=O)N[C@@H](CCCCN)C(=O)N[C@@H](CCCNC(=N)N)C(=O)N[C@@H](Cc1ccc(O)cc1)C(=O)N[C@@H](CCCCN)C(=O)N[C@@H](CCC(N)=O)C(=O)N[C@@H](CCCNC(=N)N)C(=O)N[C@H](C(=O)N[C@@H](CCCCN)C(=O)N[C@@H](CC(N)=O)C(=O)N[C@@H](CCCCN)C(N)=O)C(C)C)C(C)C)C(C)C  A2 (Pituitary adenylate cyclase-activating polypeptide type I receptor (ADCYAP1R1, Homo sapiens, UniProt P41586); cAMP accumulation, antagonist; transfected COS-7 cells; Schild slope not unity, added: VIP agonist): 30.2 nM
CCCCCCCCCCCCC/C=C/C=O  isoTOP-ABPP competition ratio (3-ketoacyl-CoA thiolase, mitochondrial (Homo sapiens, UniProt P42765); competitive isoTOP-ABPP, item: ACAA2 cysteine peptide; Ramos soluble proteome; 100 µM, added: iodoacetamide probe; baseline: DMSO over compound-treated, higher = stronger cysteine blockade): 0.9
NCC(NCCC=C(c1ccccc1)c1ccccc1)C(=O)O (racemic)  remaining signal (SLC6A9; cell-free assay; 10 µM): 45.3%
O=C(O)Cc1cc2c(cc1C(=O)c1ccccc1Cl)OCO2  current amplitude after recovery (Gria2/Glutamate receptor 3; glutamate-evoked current, whole-cell patch clamp; HEK-293T; concentration not given, glutamate alone after washout, added: glutamate): 540 ± 31 pA
COc1ccc(C(OCCN2CCCC(C(=O)O)C2)(c2ccc(C=O)cc2)c2ccc(OC)cc2)cc1 (stereo not drawn)  remaining signal (SLC6A9; cell-free assay; 1 µM): 73.5%
OC[C@H]1O[C@@H](Oc2cc3c(O)cc(O)cc3[o+]c2-c2cc(O)c(O)c(O)c2)[C@H](O)[C@@H](O)[C@H]1O  binding enthalpy (PPO3 (Agaricus bisporus, UniProt C7FF04); fluorescence quenching; concentration not given): -30 ± 0.399 kcal/mol
C#CCCC1(CCC(=O)NCC2CN(CCCCCNC(=O)CN(CCN)C(=O)Cn3cnc4c(=O)[nH]c(N)nc43)CCN(CCCCCNC(=O)CN(CCN)C(=O)Cn3cnc4c(=O)[nH]c(N)nc43)CCN(CCCCCNC(=O)CN(CCN)C(=O)Cn3cnc4c(=O)[nH]c(N)nc43)CCN2CCCCCNC(=O)CN(CCN)C(=O)Cn2cnc3c(=O)[nH]c(N)nc32)N=N1 (stereo not drawn)  change in melting temperature (T1, DNA hairpin, hairpin; FRET melting): 0.6 °C
CC[C@H](C)[C@H](NC(=O)[C@@H](NC(=O)c1ccnc(Cl)c1Cl)C(C)(C)C)C(=O)N[C@H](C(=O)N[C@H](C(=O)N[C@H](C(=O)N[C@@H](CCC(N)=O)C(=O)N[C@@H](Cc1c[nH]cn1)C(=O)N[C@H](CC(C)C)C(=O)N[C@@H](CO)C(=O)NCCOCCOCC(=O)N[C@@H](CCCCNC(=O)CC[C@@H]1NC(=O)[C@@H](CCCNC(=N)N)NC(=O)[C@H](CCCNC(=N)N)NC(=O)[C@@H](CCCNC(=N)N)NC(=O)[C@H](CCCNC(=N)N)NC(=O)[C@H](Cc2ccc3ccccc3c2)NC(=O)[C@@H](Cc2ccccc2)NC1=O)C(N)=O)[C@@H](C)O)[C@@H](C)CC)C(C)(C)O  relative binding affinity (Protein phosphatase 3 catalytic subunit alpha, with calcineurin B (PPP3CA, Homo sapiens, UniProt Q08209); fluorescence polarisation; concentration not given; baseline: reference peptide): 5 fold
COc1cc(Nc2nccc(-c3cnn4nc(OC)ccc34)n2)cc(C(F)(F)F)c1  remaining binding (Phosphatidylinositol 4,5-bisphosphate 3-kinase catalytic subunit alpha isoform (PIK3CA, Homo sapiens, UniProt P42336, Q546K); binding; 1 µM): 100%
Cc1ncsc1-c1ccc(CNC(=O)[C@@H]2C[C@@H](O)CN2C(=O)[C@@H](NC(=O)C2(F)CC2)C(C)(C)C)c(OCCC2CCN(c3nc(N(C)CCNC(=O)C(C)C)nc(N4CCn5nnc(CO)c5C4)n3)CC2)c1  Dmax (VHL/BRD9 (Homo sapiens, UniProt P40337+Q9H8M2); BRD9 degradation, degrader, HiBiT; HEK293T BRD9-HiBiT; 15 h): 78%
C#CCOC(=O)[C@]1(C)C=C(C(=O)Nc2cccc(C(=O)Nc3ccc(C)c(Nc4nccc(-c5cccnc5)n4)c3)c2)C(=O)CC1  remaining activity (MAPK9; enzyme activity, inhibitor; 0.1829 µM, unit not given; baseline: vehicle): 0.462
COc1cc(/C=C/C=O)cc(OC)c1O  reaction velocity (uncharacterized protein (Solanum tuberosum, UniProt M0ZZL3); inhibitor, UDP-Glo; added: 100 µM UDP-glucose): 0 nmol/min/mg
O=C(O)CCN1C(=O)Cc2ccccc2C1=O  inhibition (USP14; enzyme activity, inhibitor; 17 µM): 22%
COC(=O)[C@@]1(Cc2ccccc2)C=C(C(=O)OC(C)(C)C)C(=O)CC1  fraction bound (Mitogen-activated protein kinase 14 (MAPK14, Homo sapiens, UniProt Q16539, C162A); peptide binding, fluorescence polarization; 31.25 µM): 0.594
N#CN1CC[C@H](C(=O)Nc2nc3c(s2)CN(C(=O)Cn2cc(COCCOCCOCCOCCNC(=O)CCCC[C@@H]4SC[C@@H]5NC(=O)N[C@@H]54)nn2)CC3)C1  iBAQ abundance (Ubiquitin carboxyl-terminal hydrolase isozyme L3 (UCHL3, Homo sapiens, UniProt P15374); probe binding, affinity probe, neutravidin pull-down LC-MS/MS; HEK293T, cell lysate; 5 µM, 1 h, single replicate, unit not given; higher = more pulled down): 1.34e+07 and 4.2e+06 and 8.83e+06
Cc1ccc(O)c2c1NCCC2  inhibition (USP14; enzyme activity, inhibitor; 17 µM): 55%
O=C1c2sc(-c3ccc(N4CCC(CO)CC4)nc3F)nc2CCN1c1cccnc1  specific binding (TAR DNA-binding protein 43, aggregated (TARDBP, Homo sapiens, UniProt Q13148); radioligand binding; human, FTLD-TDP type B extract; added: radioligand 26.56 nM): 4.7 nM and 5.91 nM
CCCCCCOc1ccc(C(=O)OCC[N+]2(C)CC=CCC2)cc1 (stereo not drawn)  basal binding (Muscarinic acetylcholine receptor M1 (CHRM1, Homo sapiens, UniProt P11229); membranes; 1 µM, 15 h, no carbachol; baseline: control): 1 ± 0.03 fold
COC(=O)Cc1cc2c(cc1C(=O)c1cccc(Br)c1)OCO2  deactivation time constant (Gria2/Glutamate receptor 3; glutamate-evoked current, whole-cell patch clamp; HEK-293T; concentration not given, weighted tau, 1 ms pulse, added: glutamate): 2.8 ± 0.2 ms
CCCC[C@H](NC(=O)[C@H](CCC(N)=O)NC(=O)[C@H](CCC(=O)O)NC(=O)[C@@H]1CCCN1C(=O)[C@@H](NC(=O)[C@H](C)NC(=O)[C@H](CC(N)=O)NC(=O)[C@H](CC(=O)O)NC(=O)CNC(=O)[C@@H]1CCCN1C(=O)[C@H](Cc1ccc(O)cc1)NC(=O)[C@@H](NC(=O)[C@@H]1CCCN1C(=O)[C@H](CCC(=O)O)NC(=O)[C@H](CC(C)C)NC(=O)[C@@H]1CCCN1C(=O)[C@H](C)N)C(C)C)[C@@H](C)O)C(=O)N[C@@H](C)C(=O)N[C@@H](CCC(N)=O)C(=O)N[C@@H](Cc1ccc(O)cc1)C(=O)N[C@@H](C)C(=O)N[C@@H](CCCCNC(=O)c1ccc2c(c1)C(=O)OC21c2ccc(N(C)C)cc2Oc2cc(N(C)C)ccc21)C(=O)N[C@@H](CC(=O)O)C(=O)N[C@@H](CC(C)C)C(=O)N[C@@H](CCCNC(=N)N)C(=O)N[C@@H](CCCNC(=N)N)C(=O)N[C@@H](Cc1ccc(O)cc1)C(=O)N[C@H](C(=O)N[C@@H](CC(N)=O)C(=O)N[C@@H](CCCC)C(=O)N[C@@H](CC(C)C)C(=O)N[C@H](C(=O)N[C@@H](CCCNC(=N)N)C(=O)N1CCC[C@H]1C(=O)N[C@@H](CCCNC(=N)N)C(=O)N[C@@H](Cc1ccc(O)cc1)C(N)=O)[C@@H](C)O)[C@@H](C)CC  BRETmax (Neuropeptide Y receptor type 4 (NPY4R, Homo sapiens, UniProt P50391, D289A); NanoBRET binding; Nluc-tagged receptor D289A, unit not given; net BRET ratio): 0.049 ± 0.0025
CCN(CC)C(CO)c1cccc2c(C)c(C)oc12 (stereo not drawn)  fold change (Lysophosphatidic acid receptor 1 (LPAR1, Homo sapiens, UniProt Q92633, W210A); G-protein dissociation, agonist, NanoBiT; HEK-293T; 1 µM, W210A mutant; baseline: baseline luminescence): 0.589 and 0.757 and 0.922 and 0.579 and 0.515 and 0.657
COC(=O)[C@@]1(C)C=C(C(=O)Nc2cccc(C(=O)Nc3ccc(Nc4nccc(-c5cccnc5)n4)c(C)c3)c2)C(=O)CC1  remaining activity (MAPK9; enzyme activity, inhibitor; 0.02032 µM, unit not given; baseline: vehicle): 0.829
